Measurements pooled from the literature.
Parts stem from different laboratories: compare values within a part only.
Chain of UniProt O14578 (whole entry, looked up): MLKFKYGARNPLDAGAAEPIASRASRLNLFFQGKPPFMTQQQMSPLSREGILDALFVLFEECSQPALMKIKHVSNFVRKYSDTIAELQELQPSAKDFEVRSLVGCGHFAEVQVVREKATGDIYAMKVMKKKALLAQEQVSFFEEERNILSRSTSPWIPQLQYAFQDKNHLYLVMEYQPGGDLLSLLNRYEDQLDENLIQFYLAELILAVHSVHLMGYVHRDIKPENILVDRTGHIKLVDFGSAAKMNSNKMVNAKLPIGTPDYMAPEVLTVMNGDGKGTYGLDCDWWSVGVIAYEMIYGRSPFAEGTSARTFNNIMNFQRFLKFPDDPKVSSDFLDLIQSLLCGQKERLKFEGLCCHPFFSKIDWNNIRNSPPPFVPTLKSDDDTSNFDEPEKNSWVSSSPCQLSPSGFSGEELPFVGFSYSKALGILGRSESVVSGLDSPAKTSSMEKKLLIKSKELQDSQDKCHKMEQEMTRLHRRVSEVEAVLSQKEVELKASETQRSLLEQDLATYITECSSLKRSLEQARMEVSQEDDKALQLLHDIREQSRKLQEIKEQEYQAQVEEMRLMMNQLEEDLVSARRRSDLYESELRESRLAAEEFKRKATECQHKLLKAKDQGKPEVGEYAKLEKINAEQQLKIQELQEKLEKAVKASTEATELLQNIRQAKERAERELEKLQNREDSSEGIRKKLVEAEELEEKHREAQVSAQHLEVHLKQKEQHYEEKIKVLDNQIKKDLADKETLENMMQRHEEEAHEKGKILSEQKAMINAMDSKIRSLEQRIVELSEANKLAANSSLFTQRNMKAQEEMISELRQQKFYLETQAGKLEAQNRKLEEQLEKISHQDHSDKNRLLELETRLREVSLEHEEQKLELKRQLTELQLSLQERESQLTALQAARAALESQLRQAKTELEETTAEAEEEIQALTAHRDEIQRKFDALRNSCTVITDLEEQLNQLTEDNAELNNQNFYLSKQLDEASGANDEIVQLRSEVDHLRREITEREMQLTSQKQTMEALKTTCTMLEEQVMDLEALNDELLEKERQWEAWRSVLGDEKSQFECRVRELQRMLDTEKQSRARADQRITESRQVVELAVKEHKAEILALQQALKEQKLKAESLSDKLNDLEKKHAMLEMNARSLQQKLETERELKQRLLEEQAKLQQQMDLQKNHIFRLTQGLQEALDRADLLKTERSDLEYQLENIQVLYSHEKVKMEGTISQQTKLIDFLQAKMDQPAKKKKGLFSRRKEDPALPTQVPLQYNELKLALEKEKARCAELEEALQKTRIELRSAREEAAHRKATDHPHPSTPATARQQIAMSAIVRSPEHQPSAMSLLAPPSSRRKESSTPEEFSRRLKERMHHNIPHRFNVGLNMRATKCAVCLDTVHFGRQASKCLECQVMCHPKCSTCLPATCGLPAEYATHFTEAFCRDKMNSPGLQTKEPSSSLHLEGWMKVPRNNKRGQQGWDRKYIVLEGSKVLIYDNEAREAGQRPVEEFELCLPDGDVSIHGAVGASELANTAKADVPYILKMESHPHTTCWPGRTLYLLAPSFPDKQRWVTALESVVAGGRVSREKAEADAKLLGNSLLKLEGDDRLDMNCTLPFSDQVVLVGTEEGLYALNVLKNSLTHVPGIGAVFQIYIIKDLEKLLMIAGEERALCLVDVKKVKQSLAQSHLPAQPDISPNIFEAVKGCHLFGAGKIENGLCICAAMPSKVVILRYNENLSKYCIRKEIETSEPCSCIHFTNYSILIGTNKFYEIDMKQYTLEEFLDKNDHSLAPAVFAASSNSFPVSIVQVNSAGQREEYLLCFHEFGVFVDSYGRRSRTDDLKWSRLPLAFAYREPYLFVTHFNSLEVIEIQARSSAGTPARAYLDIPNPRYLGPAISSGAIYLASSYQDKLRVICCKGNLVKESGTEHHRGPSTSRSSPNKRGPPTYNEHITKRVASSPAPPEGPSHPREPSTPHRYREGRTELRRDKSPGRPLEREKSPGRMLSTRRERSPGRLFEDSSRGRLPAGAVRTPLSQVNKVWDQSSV
Chain of UniProt P42336 (whole entry, unmodified, looked up): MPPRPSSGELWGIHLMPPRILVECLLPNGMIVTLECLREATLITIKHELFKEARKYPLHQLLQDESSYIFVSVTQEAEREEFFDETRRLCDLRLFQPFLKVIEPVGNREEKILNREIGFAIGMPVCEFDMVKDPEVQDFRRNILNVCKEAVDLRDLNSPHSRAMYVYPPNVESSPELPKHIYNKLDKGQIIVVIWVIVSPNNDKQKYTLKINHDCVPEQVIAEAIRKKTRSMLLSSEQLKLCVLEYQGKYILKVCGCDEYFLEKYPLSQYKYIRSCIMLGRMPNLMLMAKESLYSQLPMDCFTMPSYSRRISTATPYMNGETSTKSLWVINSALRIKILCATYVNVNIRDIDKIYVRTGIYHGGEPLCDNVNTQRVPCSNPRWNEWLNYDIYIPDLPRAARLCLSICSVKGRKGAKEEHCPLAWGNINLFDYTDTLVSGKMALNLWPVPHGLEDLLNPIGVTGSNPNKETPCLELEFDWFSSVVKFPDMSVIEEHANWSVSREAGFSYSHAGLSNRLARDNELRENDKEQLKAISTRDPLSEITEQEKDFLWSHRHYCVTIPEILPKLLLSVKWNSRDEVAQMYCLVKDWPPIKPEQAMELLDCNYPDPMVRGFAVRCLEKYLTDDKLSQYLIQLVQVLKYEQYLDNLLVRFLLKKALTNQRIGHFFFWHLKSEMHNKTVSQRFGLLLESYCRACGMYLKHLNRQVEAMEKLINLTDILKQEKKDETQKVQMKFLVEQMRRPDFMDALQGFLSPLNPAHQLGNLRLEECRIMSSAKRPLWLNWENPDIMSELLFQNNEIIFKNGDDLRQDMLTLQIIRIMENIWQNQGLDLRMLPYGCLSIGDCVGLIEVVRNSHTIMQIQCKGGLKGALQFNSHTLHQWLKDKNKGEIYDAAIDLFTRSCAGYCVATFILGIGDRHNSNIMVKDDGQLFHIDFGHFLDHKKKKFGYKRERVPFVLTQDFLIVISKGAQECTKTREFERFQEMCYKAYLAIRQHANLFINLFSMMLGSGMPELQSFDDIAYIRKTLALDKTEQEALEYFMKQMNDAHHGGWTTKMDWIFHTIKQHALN
Chain of UniProt P04629 (whole entry, looked up): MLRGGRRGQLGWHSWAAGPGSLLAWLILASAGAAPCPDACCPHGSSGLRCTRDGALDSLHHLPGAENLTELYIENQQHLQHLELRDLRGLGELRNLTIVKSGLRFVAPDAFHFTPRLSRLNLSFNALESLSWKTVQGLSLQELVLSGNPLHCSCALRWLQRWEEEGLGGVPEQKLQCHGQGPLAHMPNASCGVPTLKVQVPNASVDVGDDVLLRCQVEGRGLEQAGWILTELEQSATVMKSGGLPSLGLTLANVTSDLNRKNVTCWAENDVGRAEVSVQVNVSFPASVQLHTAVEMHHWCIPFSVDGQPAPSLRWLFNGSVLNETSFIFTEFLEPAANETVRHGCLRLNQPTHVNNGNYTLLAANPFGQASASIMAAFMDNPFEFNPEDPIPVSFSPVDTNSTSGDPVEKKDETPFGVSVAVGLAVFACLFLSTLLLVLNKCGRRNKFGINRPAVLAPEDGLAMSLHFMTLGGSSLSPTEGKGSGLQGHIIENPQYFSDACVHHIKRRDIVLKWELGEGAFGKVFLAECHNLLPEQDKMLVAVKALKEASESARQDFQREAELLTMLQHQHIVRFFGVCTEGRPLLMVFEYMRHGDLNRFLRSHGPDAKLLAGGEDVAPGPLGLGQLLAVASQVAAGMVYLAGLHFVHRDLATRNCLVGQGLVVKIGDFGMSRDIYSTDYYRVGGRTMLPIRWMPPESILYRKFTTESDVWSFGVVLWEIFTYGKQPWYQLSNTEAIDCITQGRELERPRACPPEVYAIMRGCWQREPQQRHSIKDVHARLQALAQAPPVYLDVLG
Chain of UniProt Q14012 (whole entry, looked up): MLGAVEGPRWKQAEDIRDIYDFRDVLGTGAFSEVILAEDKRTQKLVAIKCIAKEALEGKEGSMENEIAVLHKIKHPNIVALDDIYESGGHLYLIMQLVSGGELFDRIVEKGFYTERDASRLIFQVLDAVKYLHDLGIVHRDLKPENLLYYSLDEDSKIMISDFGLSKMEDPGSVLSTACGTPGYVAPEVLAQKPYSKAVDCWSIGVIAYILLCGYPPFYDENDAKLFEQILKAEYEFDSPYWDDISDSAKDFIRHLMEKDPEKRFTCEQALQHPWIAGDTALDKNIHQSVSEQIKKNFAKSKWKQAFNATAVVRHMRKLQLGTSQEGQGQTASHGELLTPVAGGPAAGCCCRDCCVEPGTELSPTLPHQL
Chain of UniProt Q8TDX7 (whole entry, looked up): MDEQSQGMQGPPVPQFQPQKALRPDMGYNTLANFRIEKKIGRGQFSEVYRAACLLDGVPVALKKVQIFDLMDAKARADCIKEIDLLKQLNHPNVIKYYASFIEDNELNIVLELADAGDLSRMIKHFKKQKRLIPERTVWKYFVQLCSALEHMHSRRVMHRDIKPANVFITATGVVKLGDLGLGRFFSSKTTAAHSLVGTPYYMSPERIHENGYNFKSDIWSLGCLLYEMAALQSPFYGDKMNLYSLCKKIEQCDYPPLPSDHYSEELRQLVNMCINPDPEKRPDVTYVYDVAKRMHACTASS

Set 1 — observed: cell-free assay; technique: competition with immobilised ligand; concentration: 1 µM
Compound: O=C(NCc1ncc(C(F)(F)F)cc1Cl)c1ccc2c(c1)C1(CCS(=O)(=O)CC1)[C@H](C1CC1)N2S(=O)(=O)c1ccc(F)cc1
CAMK1 (Homo sapiens, UniProt Q14012) — remaining binding: 84%.
It gave 90% for remaining binding (ULK1 (Homo sapiens, UniProt O75385)).
The remaining binding was 80% (NTRK1 (Homo sapiens, UniProt P04629)).
It gave 77% for remaining binding (PIK3CA (Homo sapiens, UniProt P42336, C420R)).
It gave 100% for remaining binding (NEK7 (Homo sapiens, UniProt Q8TDX7)).
It gave 88% for remaining binding (DYRK1A (Homo sapiens, UniProt Q13627)).
The remaining binding was 100% (STK3 (Homo sapiens, UniProt Q13188)).
The remaining binding was 97% (GAK (Homo sapiens, UniProt O14976)).
It gave 100% for remaining binding (Ribosomal protein S6 kinase alpha-4, N-terminal kinase domain (RPS6KA4, Homo sapiens, UniProt O75676)).
The remaining binding was 100% (CIT (Homo sapiens, UniProt O14578)).
For LTK (Homo sapiens, UniProt P29376): remaining binding read 87%.
For LRRK2 (Homo sapiens, UniProt Q5S007): remaining binding read 82%.
STK4 (Homo sapiens, UniProt Q13043) — remaining binding: 87%.
For EPHA2 (Homo sapiens, UniProt P29317): remaining binding read 100%.

Set 2 — technique: KINOMEscan; concentration: 10 µM; reference: DMSO control; direction: lower = stronger binding
Compound: COc1cc(C(=O)N2CCC(N3CCN(C)CC3)CC2)ccc1Nc1ncc2c(n1)N(C)c1ccccc1C(=O)N2C
The binding was 96% (NDR1).
ACVR2B — binding: 100%.
NIM1 — binding: 100%.
For ZAK: binding read 99%.
The binding was 100% (AKT2).
It gave 96% for binding (IGF1R).
It gave 76% for binding (DYRK2).
The binding was 100% (NEK2).
For MKNK1: binding read 50%.
RIOK1 — binding: 100%.
The binding was 60% (TSSK1B).
It gave 84% for binding (EGFR).

Set 3 — observed: enzyme activity; action: inhibitor; concentration: 10 µM
Target: Calcium/calmodulin-dependent protein kinase type II subunit alpha (CAMK2A, Homo sapiens, UniProt Q9UQM7)
Chain of UniProt Q9UQM7 (whole entry, looked up): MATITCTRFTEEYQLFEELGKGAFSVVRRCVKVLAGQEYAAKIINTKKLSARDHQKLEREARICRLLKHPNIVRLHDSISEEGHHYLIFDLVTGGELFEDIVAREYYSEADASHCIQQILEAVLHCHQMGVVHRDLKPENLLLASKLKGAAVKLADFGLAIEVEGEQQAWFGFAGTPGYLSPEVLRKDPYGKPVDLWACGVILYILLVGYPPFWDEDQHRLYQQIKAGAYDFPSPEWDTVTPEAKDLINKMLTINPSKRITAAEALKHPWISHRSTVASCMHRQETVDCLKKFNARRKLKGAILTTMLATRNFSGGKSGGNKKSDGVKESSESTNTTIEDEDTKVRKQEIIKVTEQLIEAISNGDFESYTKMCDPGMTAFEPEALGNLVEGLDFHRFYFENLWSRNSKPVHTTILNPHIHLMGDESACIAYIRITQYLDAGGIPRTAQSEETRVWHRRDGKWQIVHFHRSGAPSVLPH
`CN1CCOC(c2ccccc2)c2ccccc2C1` (centres unmarked) gave an inhibition of 8%.
`CC(C)=CCC/C(C)=C/CC/C(C)=C/CO` gave an inhibition of -19%.
`COC(=O)C1=CO[C@@H](O[C@@H]2O[C@H](CO)[C@@H](O)[C@H](O)[C@H]2O)[C@@H]2[C@@]3(C)O[C@H]3[C@@H](O)[C@]12O` gave an inhibition of -17%.
`O=c1c(O[C@@H]2O[C@H](CO)[C@H](O)[C@H](O)[C@H]2O[C@@H]2O[C@H](CO)[C@@H](O)[C@H](O)[C@H]2O)c(-c2ccc(O)cc2)oc2cc(O)cc(O)c12` gave an inhibition of 18%.
The inhibition of `CN1[C@@H]2CC[C@H]1C[C@@H](OC(=O)c1c[nH]c3ccccc13)C2` is reported as -0.01%.
`CC[C@@H]1C(=O)N(C)c2cnc(Nc3ccc(C(=O)N[C@H]4CC[C@H](N5CCN(CC6CC6)CC5)CC4)cc3OC)nc2N1C(C)C` gave an inhibition of 22%.
`CC1(C)CC[C@]23CO[C@@]4(C=C[C@@H]5[C@@]6(C)CC[C@H](O)[C@@](C)(CO)[C@@H]6CC[C@@]5(C)[C@]4(C)C[C@@H]2O)[C@@H]3C1` gave an inhibition of -3%.
The inhibition of `CC1(C)O[C@@H]2C[C@H]3[C@@H]4CCC5=CC(=O)CC[C@]5(C)[C@@]4(F)[C@@H](O)C[C@]3(C)[C@]2(C(=O)CCl)O1` is reported as -1%.
For `CO/N=C1\CN(c2nc3c(cc2F)c(=O)c(C(=O)O)cn3C2CC2)CC1CN` (centres unmarked), the inhibition was -16%.
For `O=C(O)c1ccc(CO)o1`, the inhibition was -2%.

Set 4 — observed: enzyme activity; action: inhibitor; concentration: 0.5 µM; reference: control
Target: Tyrosine-protein kinase ZAP-70 (ZAP70, Homo sapiens, UniProt P43403)
Target sequence (P43403 1-619): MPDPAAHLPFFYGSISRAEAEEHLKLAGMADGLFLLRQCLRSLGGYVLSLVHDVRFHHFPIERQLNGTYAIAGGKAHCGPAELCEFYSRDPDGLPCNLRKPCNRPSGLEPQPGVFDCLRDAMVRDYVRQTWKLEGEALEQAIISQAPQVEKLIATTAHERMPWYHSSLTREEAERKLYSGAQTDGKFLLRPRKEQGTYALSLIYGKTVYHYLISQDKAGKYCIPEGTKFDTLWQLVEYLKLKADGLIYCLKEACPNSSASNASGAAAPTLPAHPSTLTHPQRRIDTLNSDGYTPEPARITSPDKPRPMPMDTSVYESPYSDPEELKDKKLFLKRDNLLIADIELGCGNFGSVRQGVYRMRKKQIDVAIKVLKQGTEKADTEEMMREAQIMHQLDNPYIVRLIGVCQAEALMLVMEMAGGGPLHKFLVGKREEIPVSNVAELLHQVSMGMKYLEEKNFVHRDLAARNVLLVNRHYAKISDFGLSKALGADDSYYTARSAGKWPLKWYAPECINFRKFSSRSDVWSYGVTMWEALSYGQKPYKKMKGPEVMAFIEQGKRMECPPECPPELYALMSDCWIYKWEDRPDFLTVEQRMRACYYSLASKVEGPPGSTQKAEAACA
With `O=C1NC(=O)/C(=C/c2ccc3nccnc3c2)S1` the remaining activity was 92.4%.
`Nc1[nH]nc2nnc(-c3c(-c4ccccc4)nn4ccccc34)cc12` has a remaining activity of 90.1%.
For `CCOc1cc2ncnc(Nc3cccc(Br)c3)c2cc1OCC`, the remaining activity was 105%.
`CC(=O)O/N=C1/C(c2c(O)[nH]c3cc(Br)ccc23)=Nc2ccccc21` gave a remaining activity of 102%.
`COc1cc2ncnc(Nc3ccc(OCc4ccccc4)cc3)c2cc1OC` gave a remaining activity of 87.6%.
With `Cc1ccc(NC(=O)c2ccc(CN3CCN(C)CC3)cc2)cc1Nc1nccc(-c2cccnc2)n1` the remaining activity was 101%.
`CC(C)c1nn(-c2c(Cl)cccc2Cl)c2nc(Cc3ccc(OCCO)cc3)[nH]c(=O)c12` has a remaining activity of 103%.
For `COc1ccc(-c2cnc3c(-c4ccsc4)cnn3c2)cc1`, the remaining activity was 93.7%.
The remaining activity of `CS(=O)(=O)CCNCc1ccc(-c2ccc3ncnc(Nc4ccc(OCc5cccc(F)c5)c(Cl)c4)c3c2)o1` is reported as 92.5%.
With `Cc1nc(Nc2ncc(C(=O)Nc3c(C)cccc3Cl)s2)cc(N2CCN(CCO)CC2)n1` the remaining activity was 117%.
With `O=c1cc(N2CCOCC2)oc2c1ccc1ccccc12` the remaining activity was 103%.

Repeated from above (set 3):
`CC1(C)CC[C@]23CO[C@@]4(C=C[C@@H]5[C@@]6(C)CC[C@H](O)[C@@](C)(CO)[C@@H]6CC[C@@]5(C)[C@]4(C)C[C@@H]2O)[C@@H]3C1` gave an inhibition of -3%.
The inhibition of `CC1(C)O[C@@H]2C[C@H]3[C@@H]4CCC5=CC(=O)CC[C@]5(C)[C@@]4(F)[C@@H](O)C[C@]3(C)[C@]2(C(=O)CCl)O1` is reported as -1%.
For `CO/N=C1\CN(c2nc3c(cc2F)c(=O)c(C(=O)O)cn3C2CC2)CC1CN` (centres unmarked), the inhibition was -16%.
For `O=C(O)c1ccc(CO)o1`, the inhibition was -2%.
